# Measured values pooled from the literature.
# Each numbered part is a random draw from the data of one study; scales do not carry over between parts. Several values in a cell are separate wells, animals, samples, runs or records.
# Sequence of UniProt P19784 (whole entry, looked up): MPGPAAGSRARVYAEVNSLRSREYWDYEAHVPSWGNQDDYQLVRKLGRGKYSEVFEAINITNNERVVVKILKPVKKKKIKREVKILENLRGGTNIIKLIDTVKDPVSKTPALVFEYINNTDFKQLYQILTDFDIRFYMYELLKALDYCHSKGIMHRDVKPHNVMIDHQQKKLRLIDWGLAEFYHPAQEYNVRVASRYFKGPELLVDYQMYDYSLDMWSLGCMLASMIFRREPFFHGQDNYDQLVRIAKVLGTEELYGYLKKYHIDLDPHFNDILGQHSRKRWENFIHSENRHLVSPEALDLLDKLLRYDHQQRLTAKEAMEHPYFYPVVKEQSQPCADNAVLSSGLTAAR
# Sequence of UniProt Q15418 (whole entry, looked up): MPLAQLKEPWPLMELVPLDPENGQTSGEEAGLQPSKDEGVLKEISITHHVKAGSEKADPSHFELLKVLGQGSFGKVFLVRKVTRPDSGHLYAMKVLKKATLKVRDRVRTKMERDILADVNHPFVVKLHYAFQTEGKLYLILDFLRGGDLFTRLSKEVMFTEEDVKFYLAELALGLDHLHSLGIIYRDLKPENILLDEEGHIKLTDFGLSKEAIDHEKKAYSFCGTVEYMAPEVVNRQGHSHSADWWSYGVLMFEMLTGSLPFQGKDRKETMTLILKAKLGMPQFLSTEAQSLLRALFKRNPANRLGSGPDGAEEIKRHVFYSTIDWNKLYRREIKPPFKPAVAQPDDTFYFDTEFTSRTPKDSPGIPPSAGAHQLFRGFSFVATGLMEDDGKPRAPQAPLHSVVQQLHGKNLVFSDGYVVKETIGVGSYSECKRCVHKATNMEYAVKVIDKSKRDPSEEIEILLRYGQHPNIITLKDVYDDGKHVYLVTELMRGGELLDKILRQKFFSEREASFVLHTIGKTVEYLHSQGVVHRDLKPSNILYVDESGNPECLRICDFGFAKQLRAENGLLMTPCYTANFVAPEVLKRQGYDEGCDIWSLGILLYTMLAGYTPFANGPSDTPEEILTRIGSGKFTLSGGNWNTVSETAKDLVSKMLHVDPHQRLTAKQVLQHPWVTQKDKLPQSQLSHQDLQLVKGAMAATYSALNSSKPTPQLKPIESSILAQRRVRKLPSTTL
# Sequence of UniProt Q16832 (whole entry, looked up): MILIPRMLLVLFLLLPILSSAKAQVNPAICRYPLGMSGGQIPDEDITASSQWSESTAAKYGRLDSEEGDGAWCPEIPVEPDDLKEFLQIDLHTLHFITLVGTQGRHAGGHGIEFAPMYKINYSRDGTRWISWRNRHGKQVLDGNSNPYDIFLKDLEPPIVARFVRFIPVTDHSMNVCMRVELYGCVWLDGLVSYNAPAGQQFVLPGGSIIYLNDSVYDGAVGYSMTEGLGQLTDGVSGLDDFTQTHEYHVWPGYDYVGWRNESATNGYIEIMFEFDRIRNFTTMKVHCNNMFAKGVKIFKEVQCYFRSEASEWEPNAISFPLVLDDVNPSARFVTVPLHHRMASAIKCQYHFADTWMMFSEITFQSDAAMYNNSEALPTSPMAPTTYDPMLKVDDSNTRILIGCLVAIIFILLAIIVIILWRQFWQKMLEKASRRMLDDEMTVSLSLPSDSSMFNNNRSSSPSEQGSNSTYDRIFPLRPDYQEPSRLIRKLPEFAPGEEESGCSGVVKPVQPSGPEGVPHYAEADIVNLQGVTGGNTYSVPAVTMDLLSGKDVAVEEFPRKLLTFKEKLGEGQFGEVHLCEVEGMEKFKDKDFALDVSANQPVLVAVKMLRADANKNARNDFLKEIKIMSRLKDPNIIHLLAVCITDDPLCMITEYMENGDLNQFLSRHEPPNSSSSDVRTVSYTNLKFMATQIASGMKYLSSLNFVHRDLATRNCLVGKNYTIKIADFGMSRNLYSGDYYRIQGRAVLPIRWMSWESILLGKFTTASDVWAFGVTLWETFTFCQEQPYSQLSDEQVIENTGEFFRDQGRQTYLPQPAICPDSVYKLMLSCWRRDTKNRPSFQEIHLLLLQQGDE
# Sequence of UniProt Q99755 (whole entry, looked up): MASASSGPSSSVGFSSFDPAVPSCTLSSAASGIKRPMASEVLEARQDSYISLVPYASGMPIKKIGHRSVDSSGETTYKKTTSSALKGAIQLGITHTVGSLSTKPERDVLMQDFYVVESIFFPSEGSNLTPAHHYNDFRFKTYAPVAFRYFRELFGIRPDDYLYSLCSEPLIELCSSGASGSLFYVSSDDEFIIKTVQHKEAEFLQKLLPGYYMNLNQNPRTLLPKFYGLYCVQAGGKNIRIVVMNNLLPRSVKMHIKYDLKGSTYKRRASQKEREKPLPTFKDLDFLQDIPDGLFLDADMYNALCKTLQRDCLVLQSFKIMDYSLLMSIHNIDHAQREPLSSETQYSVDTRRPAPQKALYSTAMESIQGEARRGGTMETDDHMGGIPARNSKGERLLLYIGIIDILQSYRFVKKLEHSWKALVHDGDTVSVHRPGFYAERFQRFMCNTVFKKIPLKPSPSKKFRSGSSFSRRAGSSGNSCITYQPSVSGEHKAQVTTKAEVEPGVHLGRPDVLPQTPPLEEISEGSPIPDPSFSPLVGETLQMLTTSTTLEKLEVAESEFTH
# Sequence of UniProt Q8WU08 (whole entry, looked up): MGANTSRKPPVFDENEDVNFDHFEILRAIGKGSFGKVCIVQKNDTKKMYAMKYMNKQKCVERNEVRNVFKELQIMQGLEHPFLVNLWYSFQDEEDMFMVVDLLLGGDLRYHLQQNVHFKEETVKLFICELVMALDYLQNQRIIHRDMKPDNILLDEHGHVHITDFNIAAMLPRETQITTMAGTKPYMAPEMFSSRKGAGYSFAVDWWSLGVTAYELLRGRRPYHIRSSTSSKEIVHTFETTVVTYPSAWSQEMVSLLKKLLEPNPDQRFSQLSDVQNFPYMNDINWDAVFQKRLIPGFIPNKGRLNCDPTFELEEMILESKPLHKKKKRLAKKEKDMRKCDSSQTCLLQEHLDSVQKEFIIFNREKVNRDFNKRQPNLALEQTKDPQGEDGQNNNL
# Sequence of UniProt Q52WX2 (whole entry, looked up): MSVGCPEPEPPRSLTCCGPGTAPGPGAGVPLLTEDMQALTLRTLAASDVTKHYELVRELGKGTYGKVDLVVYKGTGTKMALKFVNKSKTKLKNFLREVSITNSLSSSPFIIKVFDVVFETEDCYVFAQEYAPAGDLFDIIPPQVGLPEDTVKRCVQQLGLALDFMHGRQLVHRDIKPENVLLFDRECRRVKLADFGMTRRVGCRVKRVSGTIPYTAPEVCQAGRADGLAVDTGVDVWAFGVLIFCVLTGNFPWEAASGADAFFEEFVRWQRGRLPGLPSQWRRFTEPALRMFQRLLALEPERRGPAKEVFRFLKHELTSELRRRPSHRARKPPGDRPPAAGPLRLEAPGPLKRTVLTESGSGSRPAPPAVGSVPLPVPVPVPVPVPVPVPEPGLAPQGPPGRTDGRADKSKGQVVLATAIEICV

# Series 1 — effect on: thermal unfolding; method: differential scanning fluorimetry; concentration: 5.5 µM; reading: higher = more unfolded
# Structure (SMILES): C[C@@H]1CN(c2ccc(-c3cc(C(=O)NCCOCCOCCOCCOCCNC(=O)/C=C/c4[nH]cc(C(=O)N[C@@H](CC(N)=O)c5ccc(F)c(Cl)c5)c4-c4ccc(Cl)cc4F)ccc3F)cc2NC(=O)c2c[nH]c(=O)cc2C(F)(F)F)C[C@H](C)N1C
# WDR5: WD repeat-containing protein 5 (WDR5, Homo sapiens, UniProt P61964)
# DCAF1: DDB1- and CUL4-associated factor 1 (DCAF1, Homo sapiens, UniProt Q9Y4B6)
# Sequence of UniProt Q9Y4B6 (whole entry, looked up): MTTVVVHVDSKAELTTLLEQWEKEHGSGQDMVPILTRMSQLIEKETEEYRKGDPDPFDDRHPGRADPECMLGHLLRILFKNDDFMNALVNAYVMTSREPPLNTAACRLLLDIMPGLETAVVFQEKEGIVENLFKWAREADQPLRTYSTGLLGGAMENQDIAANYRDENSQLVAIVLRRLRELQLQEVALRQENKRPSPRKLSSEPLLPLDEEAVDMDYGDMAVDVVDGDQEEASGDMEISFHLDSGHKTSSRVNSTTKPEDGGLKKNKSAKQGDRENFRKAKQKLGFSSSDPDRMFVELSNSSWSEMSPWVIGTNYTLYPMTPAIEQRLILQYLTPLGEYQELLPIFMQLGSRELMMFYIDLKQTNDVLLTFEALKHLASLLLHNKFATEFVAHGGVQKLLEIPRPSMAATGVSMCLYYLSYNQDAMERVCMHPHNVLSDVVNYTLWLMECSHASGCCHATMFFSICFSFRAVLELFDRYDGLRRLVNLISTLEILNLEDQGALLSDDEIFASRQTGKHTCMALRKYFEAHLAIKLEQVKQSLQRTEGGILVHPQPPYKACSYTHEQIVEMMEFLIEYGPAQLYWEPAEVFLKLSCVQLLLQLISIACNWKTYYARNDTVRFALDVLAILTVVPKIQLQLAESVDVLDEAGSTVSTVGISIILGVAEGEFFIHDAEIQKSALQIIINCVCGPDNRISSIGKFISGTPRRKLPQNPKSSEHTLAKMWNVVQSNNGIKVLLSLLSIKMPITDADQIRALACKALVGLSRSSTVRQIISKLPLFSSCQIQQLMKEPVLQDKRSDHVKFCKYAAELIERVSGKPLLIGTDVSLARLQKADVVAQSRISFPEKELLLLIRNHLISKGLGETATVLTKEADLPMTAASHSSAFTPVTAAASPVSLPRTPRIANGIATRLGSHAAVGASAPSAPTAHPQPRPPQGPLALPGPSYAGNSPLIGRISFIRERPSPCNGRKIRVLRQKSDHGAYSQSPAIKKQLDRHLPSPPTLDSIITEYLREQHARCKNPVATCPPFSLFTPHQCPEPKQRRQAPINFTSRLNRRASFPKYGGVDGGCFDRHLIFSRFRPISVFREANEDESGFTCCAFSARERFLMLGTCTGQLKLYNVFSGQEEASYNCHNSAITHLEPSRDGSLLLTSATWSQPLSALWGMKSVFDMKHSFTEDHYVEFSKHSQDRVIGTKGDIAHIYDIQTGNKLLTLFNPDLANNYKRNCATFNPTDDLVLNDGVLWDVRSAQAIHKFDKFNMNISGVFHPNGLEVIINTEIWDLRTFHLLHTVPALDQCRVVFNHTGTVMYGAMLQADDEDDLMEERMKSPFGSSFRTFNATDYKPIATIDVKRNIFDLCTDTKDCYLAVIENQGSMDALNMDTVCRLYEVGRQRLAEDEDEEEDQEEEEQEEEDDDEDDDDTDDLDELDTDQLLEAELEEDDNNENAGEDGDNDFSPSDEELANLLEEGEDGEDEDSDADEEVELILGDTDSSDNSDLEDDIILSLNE
target,setting,SYPRO Orange fluorescence [a.u.]
WDR5,89.81 °C,51400
DCAF1,71.61 °C,53800
WDR5,27 °C,13000
DCAF1,37.8 °C,10900
WDR5,76.61 °C,30000
DCAF1,51.8 °C,16700
DCAF1,48.2 °C,14400
WDR5,43 °C,15000
WDR5,63.21 °C,14200
WDR5,86.21 °C,53500
WDR5,52.81 °C,16800

# Series 2 — concentration: 1 µM
# SMILES: CC[C@@]1(c2cccc(C(F)(F)F)c2)C2=C(Nc3n[nH]cc31)[C@H](F)C(C)(C)CC2=O (single isomer, unassigned)
target,test,scale,remaining binding
"Phosphatidylinositol 4-phosphate 5-kinase type-1 alpha (PIP5K1A, Homo sapiens, UniProt Q99755)","binding, competition with immobilised ligand",,81%
"Ribosomal protein S6 kinase alpha-1, C-terminal kinase domain (RPS6KA1, Homo sapiens, UniProt Q15418)","kinase binding, KINOMEscan",reference: DMSO control,86%
"Inhibitor of nuclear factor kappa-B kinase subunit alpha (CHUK, Homo sapiens, UniProt O15111)","binding, competition with immobilised ligand",,100%
"Discoidin domain-containing receptor 2 (DDR2, Homo sapiens, UniProt Q16832)","kinase binding, KINOMEscan",reference: DMSO control,98%
"Mitogen-activated protein kinase kinase kinase kinase 5 (MAP4K5, Homo sapiens, UniProt Q9Y4K4)","kinase binding, KINOMEscan",reference: DMSO control,100%
"Serine/threonine-protein kinase 32A (STK32A, Homo sapiens, UniProt Q8WU08)","kinase binding, KINOMEscan",reference: DMSO control,100%
"Casein kinase II subunit alpha' (CSNK2A2, Homo sapiens, UniProt P19784)","kinase binding, KINOMEscan",reference: DMSO control,100%
"Serine/threonine-protein kinase SBK1 (SBK1, Homo sapiens, UniProt Q52WX2)","kinase binding, KINOMEscan",reference: DMSO control,100%
"Phosphatidylinositol 3-kinase catalytic subunit type 3 (PIK3C3, Homo sapiens, UniProt Q8NEB9)","kinase binding, KINOMEscan",reference: DMSO control,97%
"Serine/threonine-protein kinase PAK 6 (PAK6, Homo sapiens, UniProt Q9NQU5)","binding, competition with immobilised ligand",,100%
"Proto-oncogene tyrosine-protein kinase receptor Ret (RET, Homo sapiens, UniProt P07949, V804L)","binding, competition with immobilised ligand",,100%
"Epidermal growth factor receptor (EGFR, Homo sapiens, UniProt P00533, del747-752/P753S)","kinase binding, KINOMEscan",reference: DMSO control,82%

# Series 3 — time: 6 days
# Compound: Cc1ncsc1-c1ccc(C(CO)NC(=O)C2CC(O)CN2C(=O)C(C(C)C)n2cc(-c3ccc(COc4c(-c5c(C)c(F)cc6[nH]ncc56)c(C5CC5)cc5c(N6CC7CC6CN7)nc(OC6CCOCC6)nc45)cc3)nn2)cc1 (stereo not shown)
cell line,test,setting,scale,viability
T24,"cell growth or viability, ATP luminescence",0.3 µM,,96.6% and 91.9% and 92.1% and 90.7%
COLO 320,"cell growth or viability, ATP luminescence",300 pM,,86.2% and 83.1% and 89% and 96%
PaTu 8902,"cell growth or viability, ATP luminescence",1 µM,,36.2% and 40.1% and 42.9% and 38.3%
BXPC-3,"cell growth or viability, ATP luminescence",300 pM,,98.4% and 85% and 77.3% and 85.8%
AsPC-1,CellTiter-Glo,300 nM,reference: DMSO,5.65% and 5.84% and 4.75%
ASPC1,"cell growth or viability, ATP luminescence",1 µM,,8.78% and 5.21% and 7.56% and 6.26%
HPAC,"cell growth or viability, ATP luminescence",1 µM,,1.16% and 1.24% and 1.44% and 3.23%
NCI-H1299,"cell growth or viability, ATP luminescence",10 µM,,1.01% and 1.79% and 1.6% and 3.08%
NCI-H1299,"cell growth or viability, ATP luminescence",0.3 µM,,113% and 108% and 93.1% and 98.2%
PSN1,"cell growth or viability, ATP luminescence",3 µM,,89.2% and 86.7% and 85.6% and 69.9%

# Series 4 — cell line: U-87 MG; concentration: concentration not given; reference: DMSO
# SMILES: CCN1/C(=C/C=C2\CCCC(/C=C/C3=[N+](CC)c4ccccc4C3(C)C)=C2NCCCCCCCCN2CCC(Nc3nc4ccccc4n3Cc3ccc(F)cc3)CC2)C(C)(C)c2ccccc21
test,log2 fold change
refers to: CLINT1 mRNA,0.807
refers to: MTMR10 mRNA,0.922
refers to: FAM72A mRNA,-1.64
refers to: NFIL3 mRNA,1.71
refers to: MAB21L1 mRNA,-2.46
refers to: NID2 mRNA,-1.73
refers to: TNFSF8 mRNA,4.19
refers to: RAMP1 mRNA,-2.95
refers to: PRX mRNA,1.07
refers to: CCN2 mRNA,-4.53
refers to: SDE2 mRNA,0.938
refers to: BCL11B mRNA,1.09
refers to: SSC5D mRNA,-1.23
refers to: PARP9 mRNA,-1.69
refers to: MXD1 mRNA,2.27
refers to: XBP1 mRNA,1.11

# Excerpt of the above (series 3):
cell line,test,setting,scale,viability
BXPC-3,"cell growth or viability, ATP luminescence",300 pM,,98.4% and 85% and 77.3% and 85.8%
AsPC-1,CellTiter-Glo,300 nM,reference: DMSO,5.65% and 5.84% and 4.75%
ASPC1,"cell growth or viability, ATP luminescence",1 µM,,8.78% and 5.21% and 7.56% and 6.26%
HPAC,"cell growth or viability, ATP luminescence",1 µM,,1.16% and 1.24% and 1.44% and 3.23%
NCI-H1299,"cell growth or viability, ATP luminescence",10 µM,,1.01% and 1.79% and 1.6% and 3.08%
NCI-H1299,"cell growth or viability, ATP luminescence",0.3 µM,,113% and 108% and 93.1% and 98.2%
PSN1,"cell growth or viability, ATP luminescence",3 µM,,89.2% and 86.7% and 85.6% and 69.9%
